Published values from different studies.
Organism: Escherichia coli

| SMILES | test | system | setting | how to read | MIC |
| --- | --- | --- | --- | --- | --- |
| CC[C@H](C)[C@H](NC(=O)[C@H](CCCNC(=N)N)NC(=O)[C@H](CCCCN)NC(=O)[C@H](Cc1c[nH]c2ccccc12)NC(=O)[C@H](CCC(N)=O)NC(=O)[C@H](Cc1ccccc1)NC(=O)[C@H](Cc1c[nH]c2ccccc12)NC(=O)[C@@H](NC(=O)[C@H](CCCCN)NC(=O)[C@@H](NC(=O)[C@H](CCC(N)=O)NC(=O)[C@@H](N)CCCNC(=N)N)[C@@H](C)CC)[C@@H](C)CC)C(=O)N[C@@H](CCCCN)C(=O)N[C@@H](Cc1c[nH]c2ccccc12)C(=O)N[C@@H](CCCNC(=N)N)C(=O)N[C@@H](CCCNC(=N)N)C(=O)O |  | ATCC 25922 |  |  | 0.75 µM |
| CC1(C)SC2C(NC(=O)C(NC(=O)C3=C(O)C(Cc4ccc(O)cc4)NC3=O)c3ccccc3)C(=O)N2C1C(=O)O (centres unmarked) | broth microdilution | isolate IU 356 A, KPC-3, VIM-1, TEM | with: clavulanic acid 6 µg/mL |  | > 200 µg/mL |
| Cn1c(=O)ccc2ccc(F)c(CCNC[C@H]3CN(c4ccc5c(n4)NC(=O)CO5)C(=O)O3)c21 |  | ATCC 25922 |  |  | 0.015 µg/mL |
| CC[C@H](C)[C@H](N)C(=O)N[C@@H](CC(C)C)C(=O)NCC(=O)N[C@H](CCCNC(=N)N)C(=O)N[C@H](C(=O)N[C@@H](Cc1c[nH]c2ccccc12)C(=O)N[C@@H](CCCCN)C(=O)NCC(=O)N[C@H](C(=O)N[C@@H](CCCCN)C(=O)N[C@@H](CC(=O)O)C(=O)N[C@H](C(=O)N[C@@H](CC(C)C)C(N)=O)[C@@H](C)CC)[C@@H](C)CC)[C@@H](C)CC | broth microdilution | ATCC 25922 | concentration not given, with: BSA |  | 6.25 µM |
| CC[C@H](C)[C@H](NC(=O)CNC(=O)[C@H](CC(=O)O)NC(=O)[C@H](CCCNC(=N)N)NC(=O)[C@@H](NC(=O)[C@H](CC(N)=O)NC(=O)[C@H](CCCNC(=N)N)NC(=O)CNC(=O)[C@@H](NC(=O)[C@H](CCCCN)NC(=O)[C@H](CCC(=O)O)NC(=O)[C@@H](NC(=O)[C@H](CCC(=O)O)NC(=O)[C@H](CCCCN)NC(=O)[C@H](Cc1ccccc1)NC(=O)[C@@H](NC(=O)[C@H](CCCCN)NC(=O)[C@H](Cc1c[nH]c2ccccc12)NC(=O)[C@@H](N)CCCNC(=N)N)[C@@H](C)CC)[C@@H](C)CC)C(C)C)C(C)C)C(=O)N[C@H](C(=O)N[C@@H](CCCCN)C(=O)N[C@@H](C)C(=O)NCC(=O)N1CCC[C@H]1C(=O)N[C@@H](C)C(=O)N[C@H](C(=O)N[C@@H](C)C(=O)N[C@H](C(=O)N[C@H](C(=O)NCC(=O)N[C@@H](CCC(N)=O)C(=O)N[C@@H](C)C(=O)N[C@@H](C)C(=O)N[C@H](C(=O)N[C@H](C(=O)N[C@H](C(=O)N[C@@H](CCCCN)C(N)=O)C(C)C)C(C)C)[C@@H](C)O)C(C)C)C(C)C)C(C)C)[C@@H](C)CC |  | K1 ATCC 700973, Mueller-Hinton broth | 16 h, 37 °C | growth inhibition over 99% | 4 µM |
| CCCCCC(=O)N[C@@H](CCCNC(=N)N)C(=O)N[C@@H](CCCNC(=N)N)C(=O)N[C@@H](CCCNC(=N)N)C(=O)N[C@@H](CCCNC(=N)N)C(=O)N[C@H](C(=O)N[C@@H](CC(C)C)C(=O)N[C@H](C(=O)N[C@@H](CCCCN)C(=O)N[C@@H](CCCCN)C(=O)N[C@H](C(=O)N[C@@H](CC(C)C)C(=O)N[C@@H](CCCCN)C(=O)N[C@@H](CC(C)C)C(=O)N[C@@H](CCCCN)C(=O)N[C@@H](CO)C(=O)N[C@@H](CO)C(=O)N[C@@H](C)C(=O)N[C@@H](Cc1ccc(O)cc1)C(N)=O)C(C)C)[C@@H](C)CC)[C@@H](C)CC | checkerboard |  | 24 h, 37 °C, alone, rifampicin plate |  | 32 µM |
| CC1(C)SC2C(NC(=O)C(NC(=O)C3=C(O)C(Cc4ccccc4)NC3=O)c3ccccc3)C(=O)N2C1C(=O)O (centres unmarked) | broth microdilution | isolate IU, CTX-M-14, TEM-1 | with: clavulanic acid 6 µg/mL |  | 100 µg/mL |
| C/C(O)=C1\C(=O)C(CC(C)C)N(C(=O)C=Cc2ccccc2)C1=O (centres unmarked) |  | K12 ΔtolC |  |  | 1.56 µg/mL |
| CC(C)Oc1c(NC(=O)c2ccc(N3C(=O)C[C@H](NC(=O)c4ccc(NC(=O)c5ccc(C#N)cc5)cc4)C3=O)cc2)ccc(C(=O)N/N=C/c2cccn2C)c1O |  | BW25113 | 18 h, 37 °C, dark-adapted state |  | 0.83 µg/mL |
| CC[C@H](C)[C@H](NC(=O)CNC(=O)[C@H](CC(=O)O)NC(=O)[C@H](CCCNC(=N)N)NC(=O)[C@@H](NC(=O)[C@H](CC(N)=O)NC(=O)[C@H](CCC(=O)O)NC(=O)CNC(=O)[C@@H](NC(=O)[C@H](CCCCN)NC(=O)[C@H](CCC(=O)O)NC(=O)[C@@H](NC(=O)[C@H](CCCCN)NC(=O)[C@H](CCCCN)NC(=O)[C@H](Cc1ccccc1)NC(=O)[C@@H](NC(=O)[C@H](CCCCN)NC(=O)[C@H](Cc1c[nH]c2ccccc12)NC(=O)[C@@H](N)CCCNC(=N)N)[C@@H](C)CC)[C@@H](C)CC)C(C)C)C(C)C)C(=O)N[C@H](C(=O)N[C@@H](CCCCN)C(=O)N[C@@H](C)C(=O)NCC(=O)N1CCC[C@H]1C(=O)N[C@@H](C)C(=O)N[C@H](C(=O)N[C@@H](C)C(=O)N[C@H](C(=O)N[C@H](C(=O)NCC(=O)N[C@@H](CCC(N)=O)C(=O)N[C@@H](C)C(=O)N[C@@H](C)C(=O)N[C@H](C(=O)N[C@H](C(=O)N[C@H](C(=O)N[C@@H](CCCCN)C(N)=O)C(C)C)C(C)C)[C@@H](C)O)C(C)C)C(C)C)C(C)C)[C@@H](C)CC |  | K1 ATCC 700973, Mueller-Hinton broth | 16 h, 37 °C | growth inhibition over 99% | 2 µM |
| CC(C)C[C@@H](NC(=O)CNC(=O)[C@@H](CCCCN)NC(=O)[C@@H](CC(C)C)NC(=O)[C@@H](CCCCN)NC(=O)[C@@H](CCCNC(=N)N)NC(=O)[C@@H](CC(C)C)NC(=O)[C@@H](CC(C)C)NC(=O)[C@@H](CCCNC(=N)N)NC(=O)[C@H](N)CCCNC(=N)N)C(=O)N[C@H](CCCCN)C(=O)N[C@H](CCCCN)C(=O)N[C@H](Cc1ccc(O)cc1)C(=O)N[C@H](CC(C)C)C(=O)N[C@H](Cc1ccc(O)cc1)C(=O)N[C@H](Cc1ccccc1)C(=O)N[C@H](CCCCN)C(=O)N[C@H](CC(C)C)C(=O)N[C@H](CCC(N)=O)C(=O)N[C@H](CC(C)C)C(=O)N[C@H](CC(C)C)C(=O)N[C@H](CCCCN)C(=O)N[C@H](CCCCN)C(N)=O |  | KCTC 1682, Mueller-Hinton broth | with: 150 mM NaCl |  | 8 µM |
| O=C(O)c1cccc(C(=O)O)n1 |  | VIM-2 producer | 32 µg/mL, MIC of meropenem, with: meropenem |  | 0.125 µg/mL |
| CC(C)(O/N=C(\C(=O)N[C@@H]1C(=O)N2C(C(=O)[O-])=C(C[n+]3ccccc3)CS[C@H]12)c1csc(N)n1)C(=O)O |  | DH5a clone with KPC-100 |  |  | 32 µg/mL |
| CC[C@H](C)[C@H](NC(=O)[C@H](CCCNC(=N)N)NC(=O)[C@H](Cc1ccc(O)cc1)NC(=O)CNC(=O)[C@H](Cc1ccc(O)cc1)NC(=O)[C@H](CCCNC(=N)N)NC(=O)[C@H](CC(C)C)NC(=O)[C@H](C)NC(=O)[C@H](CCC(N)=O)NC(=O)[C@H](CCC(=O)O)NC(=O)[C@@H](NC(=O)[C@H](CCC(N)=O)NC(=O)[C@H](CCCNC(=N)N)NC(=O)[C@H](CCSC)NC(=O)[C@H](Cc1ccc(O)cc1)NC(=O)[C@H](CCC(N)=O)NC(=O)[C@@H](N)CCCNC(=N)N)[C@@H](C)CC)C(=O)N[C@@H](CO)C(=O)N[C@@H](CCCNC(=N)N)C(=O)N[C@@H](CCCNC(=N)N)C(N)=O | broth dilution | K12 BW25113 |  |  | 5.9 µM |
| CC(C)Oc1c(-n2cc(-c3ccc(NC(=O)C(CC(N)=O)NC(=O)c4ccc(NC(=O)c5ccc(C#N)cc5)cc4)cc3)nn2)ccc(C(=O)Nc2ccc(C(=O)O)cc2)c1O (centres unmarked) |  | K12 ΔtolC |  |  | < 0.03 µg/mL |
| C[C@H]1[C@H](NC(=O)/C(=N\OC(C)(C)C(=O)O)c2csc(N)n2)C(=O)N1S(=O)(=O)O | broth microdilution | ATCC 2469, NDM-positive | compound alone |  | 8 µg/mL |
| CC[C@H](C)[C@H](NC(=O)[C@H](CC(C)C)NC(=O)[C@H](CCCNC(=N)N)NC(=O)[C@@H](N)CCCNC(=N)N)C(=O)N[C@@H](CCCNC(=N)N)C(=O)N[C@@H](CCCCN)C(=O)N[C@@H](CC(C)C)C(=O)N[C@@H](CCCCN)C(=O)NCC(=O)N[C@@H](CC(C)C)C(=O)N[C@@H](CCCCN)C(=O)N[C@@H](CCCCN)C(=O)N[C@@H](Cc1ccc(O)cc1)C(=O)N[C@@H](CC(C)C)C(=O)N[C@@H](Cc1ccc(O)cc1)C(=O)N[C@@H](Cc1ccccc1)C(=O)N[C@@H](CCCCN)C(=O)N[C@@H](CC(C)C)C(=O)N[C@@H](CCC(N)=O)C(=O)N[C@@H](CC(C)C)C(=O)N[C@@H](CC(C)C)C(=O)N[C@@H](CCCCN)C(=O)N[C@@H](CCCCN)C(N)=O |  | KCTC 1682, Mueller-Hinton broth | with: 150 mM NaCl |  | 16 µM |
| CCN1CCN(C(=O)N[C@@H](C(=O)N[C@@H]2C(=O)N3[C@@H]2SC(C)(C)[C@@H]3C(=O)O)c2ccccc2)C(=O)C1=O |  | BL21(DE3) wild type |  |  | < 1.75 µg/mL |
| C[C@@H](O)[C@H]1C(=O)N2C(C(=O)O)=C(S[C@@H]3CN[C@H](C(=O)N(C)C)C3)[C@H](C)[C@H]12 |  | DH10B expressing VIM-2/pBCSK- |  |  | 0.5 µg/mL |
| CC[C@H](C)[C@H](NC(=O)CN)C(=O)N[C@@H](C)C(=O)N[C@@H](CC(=O)O)C(=O)N[C@@H](C)C(=O)N[C@H](C(=O)N[C@@H](CCCCN)C(=O)N[C@@H](C)C(=O)N[C@H](C(=O)N[C@@H](C)C(=O)N[C@@H](CCCCN)C(=O)N[C@@H](C)C(=O)N[C@@H](CC(C)C)C(=O)NCC(N)=O)[C@@H](C)CC)[C@@H](C)CC |  | ATCC 25922, Mueller-Hinton broth | 12 h, 37 °C |  | 128 µg/mL |

Some of these lines once more:
| SMILES | test | system | setting | how to read | MIC |
| --- | --- | --- | --- | --- | --- |
| CC(C)(O/N=C(\C(=O)N[C@@H]1C(=O)N2C(C(=O)[O-])=C(C[n+]3ccccc3)CS[C@H]12)c1csc(N)n1)C(=O)O |  | DH5a clone with KPC-100 |  |  | 32 µg/mL |
| CC[C@H](C)[C@H](NC(=O)[C@H](CCCNC(=N)N)NC(=O)[C@H](Cc1ccc(O)cc1)NC(=O)CNC(=O)[C@H](Cc1ccc(O)cc1)NC(=O)[C@H](CCCNC(=N)N)NC(=O)[C@H](CC(C)C)NC(=O)[C@H](C)NC(=O)[C@H](CCC(N)=O)NC(=O)[C@H](CCC(=O)O)NC(=O)[C@@H](NC(=O)[C@H](CCC(N)=O)NC(=O)[C@H](CCCNC(=N)N)NC(=O)[C@H](CCSC)NC(=O)[C@H](Cc1ccc(O)cc1)NC(=O)[C@H](CCC(N)=O)NC(=O)[C@@H](N)CCCNC(=N)N)[C@@H](C)CC)C(=O)N[C@@H](CO)C(=O)N[C@@H](CCCNC(=N)N)C(=O)N[C@@H](CCCNC(=N)N)C(N)=O | broth dilution | K12 BW25113 |  |  | 5.9 µM |
| CC(C)Oc1c(-n2cc(-c3ccc(NC(=O)C(CC(N)=O)NC(=O)c4ccc(NC(=O)c5ccc(C#N)cc5)cc4)cc3)nn2)ccc(C(=O)Nc2ccc(C(=O)O)cc2)c1O (centres unmarked) |  | K12 ΔtolC |  |  | < 0.03 µg/mL |
